Measured values pooled from the literature.
Protocols differ between the studies behind these lines. ± gives the spread as reported.
Target: Adenosine receptor A3 (ADORA3, Homo sapiens, UniProt P0DMS8)
Sequence of UniProt P0DMS8 (whole entry, looked up): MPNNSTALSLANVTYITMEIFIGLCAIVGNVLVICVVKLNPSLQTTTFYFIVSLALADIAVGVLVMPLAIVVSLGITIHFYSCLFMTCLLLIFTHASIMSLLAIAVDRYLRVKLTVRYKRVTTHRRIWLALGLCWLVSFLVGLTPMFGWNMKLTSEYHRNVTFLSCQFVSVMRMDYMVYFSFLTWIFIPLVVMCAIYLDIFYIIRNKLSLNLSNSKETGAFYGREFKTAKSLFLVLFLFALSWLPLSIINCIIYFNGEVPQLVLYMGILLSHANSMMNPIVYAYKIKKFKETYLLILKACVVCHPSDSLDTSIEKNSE

| SMILES | assay | system | setting | scale | measurement | result |
| --- | --- | --- | --- | --- | --- | --- |
| CO[C@@H](C)c1c(NC(=O)Nc2cnc(-n3nccn3)c(C(F)(F)F)c2)cnc2sc(C)nc12 | ligand displacement, radioligand | – | 10 µM | – | inhibition | 19.5% |
| CCC(=O)N(C)c1ccc(Cl)c(Cl)c1 | ligand displacement, radioligand | – | 10 µM | – | inhibition | < 10% |
| CCCC(CCC)c1nc2c(Nc3ccc(C#CCCCCCCCCCN4CCCCC4)cc3)nc3ccccc3c2n1Cc1ccccc1 | cAMP inhibition, ago-PAM | HEK293 expressing ADORA3 | 10 µM, no orthosteric agonist | baseline: NECA | Emax | 32 ± 1.3% |
| Cn1ccc2cc(-n3c(=O)[nH]c4sc5c(c4c3=O)CCCC5)ccc21 | cell-free assay, radioligand | – | 10 µM | – | inhibition | 7% |
| O=C1c2sc(-c3ccc(N4CCC(F)C4)nc3F)nc2CCN1c1cccnc1 (stereo not drawn) | ligand displacement, radioligand | – | 1 µM | – | inhibition | 13% |
| CNC(=O)C[C@H](Cc1ccc(C#N)cc1)NC(=O)c1cc(-c2ccc(CN[C@H](C)c3ccc(C)cc3)o2)ccc1Cl | agonist response, antagonist | human cells | 10 µM, A3 antagonist | – | inhibition | -9% |
| CC(=O)c1cnc(N)nc1N1CC[C@H]1c1nn2ccc(Cl)c2c(=O)n1-c1ccccc1 | ligand displacement, radioligand | – | 10 µM | – | inhibition | 32% |
| Cc1[nH]nc2c1N=C(c1ccccc1Cl)c1cnc(N3CCOCC3)cc1N2 | cell-free assay | – | 10 µM | – | inhibition | 62% |
| O=C(O)COc1cccc(NC(=O)c2cc(-c3cccc(F)c3)ccc2F)c1 | ligand displacement, radioligand | – | 10 µM | – | inhibition | 11% |

Some of these lines once more:
| SMILES | assay | system | setting | scale | measurement | result |
| --- | --- | --- | --- | --- | --- | --- |
| Cc1[nH]nc2c1N=C(c1ccccc1Cl)c1cnc(N3CCOCC3)cc1N2 | cell-free assay | – | 10 µM | – | inhibition | 62% |
